{"data": "Assay results collected from several papers", "note": "A part holds a random share of what one study measured. Substitutions count along the parent as printed.", "chain of UniProt P49459 (whole entry, looked up)": "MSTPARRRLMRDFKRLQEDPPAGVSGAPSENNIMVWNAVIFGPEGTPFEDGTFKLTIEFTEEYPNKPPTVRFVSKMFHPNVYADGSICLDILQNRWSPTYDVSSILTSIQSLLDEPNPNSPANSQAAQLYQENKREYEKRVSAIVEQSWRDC", "chain of UniProt Q96B02 (whole entry, looked up)": "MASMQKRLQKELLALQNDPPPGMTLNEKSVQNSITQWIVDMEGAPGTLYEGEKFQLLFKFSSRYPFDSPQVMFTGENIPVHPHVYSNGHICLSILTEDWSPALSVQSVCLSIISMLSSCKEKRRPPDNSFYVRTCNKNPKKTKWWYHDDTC", "chain of UniProt P61077 (whole entry, looked up)": "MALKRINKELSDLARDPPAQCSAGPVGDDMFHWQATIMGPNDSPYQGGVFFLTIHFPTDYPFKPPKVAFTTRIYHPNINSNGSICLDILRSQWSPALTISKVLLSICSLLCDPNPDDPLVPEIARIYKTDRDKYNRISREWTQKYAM"}
{"data": "Series 1", "target": "Sal-like protein 4, full length isoform A (SALL4, Homo sapiens, UniProt Q9UJQ4, residues 1-1053)", "technique": "universal PBM", "molecule type": "double-stranded DNA, one strand shown", "matrix": "in vitro", "concentration": "600 nM", "notes": "8-mer, flanks averaged, mean of replicates", "reading": "higher = stronger binding", "chain of UniProt Q9UJQ4 (whole entry, looked up)": "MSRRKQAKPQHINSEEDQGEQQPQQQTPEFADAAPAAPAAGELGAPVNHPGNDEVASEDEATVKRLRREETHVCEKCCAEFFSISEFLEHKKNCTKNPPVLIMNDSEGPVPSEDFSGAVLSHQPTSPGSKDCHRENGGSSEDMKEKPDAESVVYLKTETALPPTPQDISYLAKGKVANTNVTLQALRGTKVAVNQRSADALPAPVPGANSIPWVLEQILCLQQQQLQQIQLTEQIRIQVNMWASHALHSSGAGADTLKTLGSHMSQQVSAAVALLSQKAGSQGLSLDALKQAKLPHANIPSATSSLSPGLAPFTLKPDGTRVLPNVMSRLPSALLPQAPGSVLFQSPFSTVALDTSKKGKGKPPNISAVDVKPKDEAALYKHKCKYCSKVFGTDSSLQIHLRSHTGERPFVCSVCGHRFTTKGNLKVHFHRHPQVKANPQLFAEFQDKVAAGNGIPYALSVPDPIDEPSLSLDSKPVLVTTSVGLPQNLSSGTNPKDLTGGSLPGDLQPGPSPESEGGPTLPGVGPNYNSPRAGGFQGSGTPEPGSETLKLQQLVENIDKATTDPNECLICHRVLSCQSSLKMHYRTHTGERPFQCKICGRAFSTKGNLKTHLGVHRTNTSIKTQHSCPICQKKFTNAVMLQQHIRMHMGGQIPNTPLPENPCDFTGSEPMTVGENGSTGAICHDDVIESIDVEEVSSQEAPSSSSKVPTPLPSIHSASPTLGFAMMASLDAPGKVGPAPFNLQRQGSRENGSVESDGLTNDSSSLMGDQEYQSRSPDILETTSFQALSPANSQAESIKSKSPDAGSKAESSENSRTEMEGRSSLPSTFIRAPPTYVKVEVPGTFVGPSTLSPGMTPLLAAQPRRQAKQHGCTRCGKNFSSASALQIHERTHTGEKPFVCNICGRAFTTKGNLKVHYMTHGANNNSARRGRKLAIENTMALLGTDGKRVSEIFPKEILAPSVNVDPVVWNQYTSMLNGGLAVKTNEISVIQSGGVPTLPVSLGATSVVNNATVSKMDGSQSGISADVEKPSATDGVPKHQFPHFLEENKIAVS"}
{"Strand": "TGCAGGCA", "E-score": -0.0216}
{"Strand": "AATTCTGA", "E-score": 0.226}
{"Strand": "AGAGGGGA", "E-score": -0.251}
{"Strand": "CTTGTCGC", "E-score": -0.157}
{"Strand": "CCGGGGCA", "E-score": -0.3}
{"Strand": "AACAAGGG", "E-score": -0.0474}
{"Strand": "ATACGACC", "E-score": -0.0751}
{"Strand": "AGAGCTTA", "E-score": 0.0711}
{"data": "Series 2", "target": "CCNB3, cyclin fold, Cln2 fusion (human)", "technique": "yeast growth competition, sequencing", "matrix": "yeast", "notes": "strong parent motif", "baseline": "not given", "reading": "higher = stronger binding", "parent": "viral docking peptide; YKVKRRLVFGADD"}
{"Variant": "YKVKRRCVFGADD [L7C]", "normalised enrichment score": -0.513}
{"Variant": "YKVKRRLVFGAMD [D12M]", "normalised enrichment score": 2.02}
{"Variant": "YKVKRQLVFGADD [R6Q]", "normalised enrichment score": 0.303}
{"Variant": "YKVKRRLNFGADD [V8N]", "normalised enrichment score": 1.9}
{"Variant": "YKLKRRLVFGADD [V3L]", "normalised enrichment score": 0.61}
{"Variant": "YKVKRRLDFGADD [V8D]", "normalised enrichment score": 3.14}
{"Variant": "YKVKRRMVFGADD [L7M]", "normalised enrichment score": 0.0924}
{"Variant": "YKVKRRLVFGSDD [A11S]", "normalised enrichment score": 2.14}
{"Variant": "YPVKRRLVFGADD [K2P]", "normalised enrichment score": 2.68}
{"Variant": "YKVKRRLVFIADD [G10I]", "normalised enrichment score": 1.25}
{"Variant": "YKVKRRLVNGADD [F9N]", "normalised enrichment score": 0.0203}
{"Variant": "YKVKFRLVFGADD [R5F]", "normalised enrichment score": -0.0531}
{"Variant": "YKVKRRLVFGALD [D12L]", "normalised enrichment score": 1.41}
{"Variant": "YKVKRRLVFHADD [G10H]", "normalised enrichment score": 1.38}
{"Variant": "YKVKRRLVFRADD [G10R]", "normalised enrichment score": 1.26}
{"Variant": "YKVKRRGVFGADD [L7G]", "normalised enrichment score": -0.0134}
{"Variant": "YKVKRTLVFGADD [R6T]", "normalised enrichment score": 3.18}
{"Variant": "YKVKRFLVFGADD [R6F]", "normalised enrichment score": 0.402}
{"Variant": "YFVKRRLVFGADD [K2F]", "normalised enrichment score": 1.47}
{"Variant": "YKVKPRLVFGADD [R5P]", "normalised enrichment score": 0.0265}
{"Variant": "YGVKRRLVFGADD [K2G]", "normalised enrichment score": 2.68}
{"Variant": "YHVKRRLVFGADD [K2H]", "normalised enrichment score": 2.69}
{"Variant": "YVVKRRLVFGADD [K2V]", "normalised enrichment score": 1.5}
{"Variant": "YKVKRALVFGADD [R6A]", "normalised enrichment score": 0.7}
{"Variant": "YKVKRRSVFGADD [L7S]", "normalised enrichment score": 0.399}
{"data": "Series 3", "target": "PABPC1L2, full length, GST fusion (mouse, UniProt A0ABA7IW68)", "technique": "RNAcompete", "molecule type": "RNA", "matrix": "in vitro", "concentration": "20 nM", "notes": "7-mer, probes averaged, single round", "baseline": "mean of 7-mers", "reading": "higher = stronger binding", "Residues (chain)": "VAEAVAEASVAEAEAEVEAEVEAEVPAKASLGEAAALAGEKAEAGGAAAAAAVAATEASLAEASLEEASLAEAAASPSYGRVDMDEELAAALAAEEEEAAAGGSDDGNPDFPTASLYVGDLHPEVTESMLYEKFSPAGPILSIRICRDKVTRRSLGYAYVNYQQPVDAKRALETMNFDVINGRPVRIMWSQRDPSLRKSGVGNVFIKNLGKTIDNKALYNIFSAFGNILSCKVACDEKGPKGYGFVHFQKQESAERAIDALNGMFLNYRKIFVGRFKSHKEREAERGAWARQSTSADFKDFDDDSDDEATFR"}
{"Strand": "CGCCGGG", "7-mer Z-score": -0.273}
{"Strand": "CGGCCCA", "7-mer Z-score": -0.184}
{"Strand": "GUGCGUA", "7-mer Z-score": -0.238}
{"Strand": "AAUUUGU", "7-mer Z-score": -0.17}
{"Strand": "CCCAACU", "7-mer Z-score": -0.324}
{"Strand": "CCCACUU", "7-mer Z-score": -0.155}
{"Strand": "CGGUAAU", "7-mer Z-score": -0.108}
{"Strand": "GUGGGGU", "7-mer Z-score": 0.037}
{"data": "Series 4", "Sequence": "YWAMDSTFELCKICAESNKDVKIEPCGHLLCSCCLAAWQHSDSQTCPFCRCEIKGWEAVS (CBLC RING domain (UniProt Q9ULV8))", "technique": "yeast two-hybrid", "matrix": "yeast", "notes": "mostly zero background", "baseline": "not given", "reading": "higher = stronger interaction"}
{"target": "UBE2D3 UBC core domain (UniProt P61077)", "lacZ reporter activity": 0}
{"target": "UBE2A UBC core domain (UniProt P49459)", "lacZ reporter activity": 0}
{"target": "UBE2W UBC core domain (UniProt Q96B02)", "lacZ reporter activity": 0}
{"data": "Series 5", "target": "HLA class I histocompatibility antigen, A alpha chain, allele A*80:01 (Homo sapiens, UniProt P04439)", "effect on": "peptide-MHC binding", "molecule type": "peptide", "concentration": "concentration not given"}
{"Sequence": "FTFDLTALK", "binding": "inactive"}
{"Sequence": "VSDRPVMRY", "binding": "inactive"}
{"Sequence": "GYLHDFLKY", "binding": "inactive"}
{"Sequence": "MSADNAGAL", "binding": "inactive"}
{"Sequence": "FTFERSKIK", "binding": "inactive"}
{"Sequence": "MFKNFPFFK", "binding": "inactive"}
{"data": "Series 6", "partner": "EEF1A1 (Homo sapiens, UniProt P68104)", "technique": "cross-linking MS", "notes": "hits only"}
{"Molecule": "EEF1D (Homo sapiens, UniProt P29692)", "interaction screen": "cross-linked"}
{"Molecule": "TPT1 (Homo sapiens, UniProt P13693)", "interaction screen": "cross-linked"}
{"Molecule": "EEF1B2 (Homo sapiens, UniProt P24534)", "interaction screen": "cross-linked"}
{"note": "Excerpt of the above (series 2):"}
{"Variant": "YFVKRRLVFGADD [K2F]", "normalised enrichment score": 1.47}
{"Variant": "YKVKRRLVFGSDD [A11S]", "normalised enrichment score": 2.14}
{"Variant": "YKVKRRLVFGAMD [D12M]", "normalised enrichment score": 2.02}
{"Variant": "YKVKRRGVFGADD [L7G]", "normalised enrichment score": -0.0134}
